Results collected from several papers.
Numbered parts are unrelated; each lists some results of a single study. Substitutions count along the parent as printed.

Series 1 — technique: RNA Bind-n-Seq; form: RNA; sample: in vitro; concentration: 365 nM; reference: no-protein control; direction: higher = stronger binding
Target: RNA binding protein fox-1 homolog 2, RRM domain, GST-SBP tag (RBFOX2, Homo sapiens, UniProt O43251-10, residues 100-194)
Notes: natural RNA segment, single round, ends assumed
Constant ends, left off below: GGGAGUUCUACAGUCCGACGAUC … UGGAAUUCUCGGGUGCCAA
Construct (chain): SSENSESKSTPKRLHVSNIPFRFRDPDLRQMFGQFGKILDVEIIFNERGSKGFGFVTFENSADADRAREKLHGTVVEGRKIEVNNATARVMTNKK
Sequence	RBNS enrichment (R)
CUGCUGUAUAACUCCUUGCCAUGCAAACUCUCAAGAGGCCAAUAUAUUCCUGGCCAUGUUUGAAUGAGCCUCUUAAAAUAAACUUAGAGCCAUGCAAAUGCCAGCAGCUU	0.392
CACUGGGUUGCAGGGGAUUGAAGCCCUCCAAAAGCACUUACGGAUUCUGGUGGGGUGUGUUCCAACUGCCCCCAACUUUGUGGAUGUCUUCCUUGGAGGGGGGAGCCAUA	0.268
UUGUACAAGAUACACUGGAGAACAAAGGGAACUCAAGAUUCUUCCAGCCACAUGUCACCUGUAGGUAGAAGUAAACUCUGCAGUGCAGCUUCUGCUCUUGGCCCCUCUGG	0.316
AAGUUUGAAGAGCCAUUUUGGUAAACGGUUUUUAUUAAAGAUGCUAUGGAACAUAAAGUUGUAUUGCAUGCAAUUUGAAGUAACUUAUUUGACUAUGAAUGUUAUCGGAU	0.626
GAGGCAGAGAGAUAAGGGAGGCCCCUCCCCCCUCCCGGAGGCCAGAACCCCGUGGGGUGGGGGAGAGGAUGUUUCUGUGGGCCCCUUCACCCCUCCUCUGUCUGCACCUC	0.408
AAAUGUAAUACCUGAGCAAGCACAGCCUUGGGUGUGCUUGGACAAGAGACCCAGCGGCAGAGCACCUUUUACAUUUUGGACCGUUCAUGAAUGGGCAAUGUUGUGUUGAU	0.545
CCUGCUGUCCCUCACUCACCUGUCACCUGUCACCCUACGGGGACCCACUUGUGGCUUCCCACGUGGUUGUACAUAUUUGUCAUUUAAGAUCUUUCUUCCCGCCGCUUGGC	0.316
CAUCCACAUGGUGACAGGUCUGGACCCCGAGAAGUUGAUCAGCCUGCACACAGUGGAGCUUCGGGGGAACCAGCUGGAAAGCACCCUGGGAAUCAAUCUUCCUAAGCUGA	0.533

Series 2 — technique: protein binding microarray; form: double-stranded DNA, one strand shown; sample: in vitro; concentration: not given; reference: not given; direction: higher = stronger binding
Target: Histone acetyltransferase KAT6A, winged helix 2, GST fusion (KAT6A, Homo sapiens, UniProt Q92794, residues 85-181)
Notes: 8-mer, flanks averaged, mean of 2 arrays, mostly near background
Target sequence (chain): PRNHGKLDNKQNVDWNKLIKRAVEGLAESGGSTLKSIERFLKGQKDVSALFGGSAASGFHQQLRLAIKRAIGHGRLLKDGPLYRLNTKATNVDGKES
Sequence	E-score
ATACCTAT	-0.0965
AGGTGAGA	-0.0447
ATCGCCGC	0.108
GGTTTACA	-0.0618
GCAATAAA	0.0486
CACTAAGG	-0.109
ACGTTGCC	-0.116
CAGGTTGA	-0.211
CTTATCAC	-0.0513
AGATACAC	-0.0191
TATGGGCA	0.0586
GTCTATGA	-0.00898
ACAAGTCT	-0.233
CCACCAAC	0.00692
TACCGACA	-0.0575
ACACTTCA	-0.0416
ATACATCG	-0.0272
TCCCCGCA	0.114
CTGCTAGC	-0.109
CGTTTTCA	0.104
ACGATCGC	-0.145
AGTTCCAT	-0.0531

Series 3 — target: CCND3, cyclin fold, Cln2 fusion (human); technique: yeast growth competition, sequencing; sample: yeast; notes: weak parent motif; reference: not given; direction: higher = stronger binding
Starting sequence: BRCA2 docking peptide (human); PSIKRNLLNEFDR; partner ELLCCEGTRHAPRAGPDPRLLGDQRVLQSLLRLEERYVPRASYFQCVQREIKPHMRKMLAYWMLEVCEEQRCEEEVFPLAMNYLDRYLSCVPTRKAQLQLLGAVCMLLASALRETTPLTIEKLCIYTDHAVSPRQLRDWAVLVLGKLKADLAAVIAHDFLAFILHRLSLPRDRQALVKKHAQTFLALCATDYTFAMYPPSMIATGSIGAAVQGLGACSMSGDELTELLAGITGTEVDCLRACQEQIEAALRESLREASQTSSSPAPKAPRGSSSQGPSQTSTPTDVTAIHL
Substitution	normalised enrichment score
K4F	0.0743
L8R	0.0186
K4R	0.0801
R5D	0.192
I3L	0.152
R13G	0.125
D12N	0.183
F11S	-0.168
F11H	0.0938
E10W	0.144
L7S	0.0544
F11A	0.212
R5H	0.00909
K4I	0.0528
L7W	0.127
P1F	0.11
E10R	0.0845
N6Y	0.0614
E10Y	0.0161
P1T	0.103
R13C	0.0647
F11N	0.147
R5Q	0.131
E10K	-0.02
R5V	0.0684

Series 4 — technique: DHFR PCA, deep sequencing; sample: yeast; with: (+)-ABA 0 µM; reference: wild-type fitted maximum; direction: higher = stronger binding
Target: ABI1, truncated, D143A, DHFR fusion (Arabidopsis thaliana)
Notes: methotrexate growth selection, single substitutions
Starting sequence: PYL1, truncated, DHFR fusion (Arabidopsis thaliana); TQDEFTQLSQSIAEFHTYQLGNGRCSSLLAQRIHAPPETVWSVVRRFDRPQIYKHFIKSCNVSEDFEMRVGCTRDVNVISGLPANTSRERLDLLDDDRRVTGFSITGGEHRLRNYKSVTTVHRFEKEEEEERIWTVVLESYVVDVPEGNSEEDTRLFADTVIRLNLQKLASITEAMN
Substitution	relative binding score [%]
V76C	6.8
R74E	1.92
R90S	-2.42
A84C	43.6
D97H	16.7
V62W	-1.52
N22P	58.3
S42V	3.09
E89Q	-4.99
S42F	-4.01

Single results of other studies
Substance	target	assay	test system	conditions	how to read	endpoint	value
PhoQ, residues 284 288 289 292 302 303 TYGVAM	PhoP, residues 12 14 15 18 19 TTLRV (Escherichia coli, UniProt P23836)	Sort-seq, item: YFP reporter	E. coli	PhoQ-PhoP variant library, with: 10 µM Mg2+	reference: high Mg2+ state, higher = stronger signaling	fold induction	8.03

For quick reference, copied from above (series 3):
Substitution	normalised enrichment score
F11H	0.0938
L7S	0.0544
R5V	0.0684
R5D	0.192
K4I	0.0528
F11N	0.147
K4R	0.0801
